# Assay results collected from several papers.
# Each line is one published result; not all experiments were run side by side. Values joined by “and” are separate records of one study, mostly repeats; a detail may differ.
# Sequence of UniProt Q9UH17 (whole entry, looked up): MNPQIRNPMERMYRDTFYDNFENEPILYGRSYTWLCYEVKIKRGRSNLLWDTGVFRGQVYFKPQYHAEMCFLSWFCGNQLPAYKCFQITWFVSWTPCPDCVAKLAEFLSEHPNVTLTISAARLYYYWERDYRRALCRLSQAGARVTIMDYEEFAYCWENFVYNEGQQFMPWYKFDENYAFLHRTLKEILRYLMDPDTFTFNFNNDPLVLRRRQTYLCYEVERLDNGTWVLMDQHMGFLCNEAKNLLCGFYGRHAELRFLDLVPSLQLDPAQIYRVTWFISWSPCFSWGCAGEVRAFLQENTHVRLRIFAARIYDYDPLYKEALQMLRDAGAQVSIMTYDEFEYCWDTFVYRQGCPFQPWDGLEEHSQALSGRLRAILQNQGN
# Sequence of UniProt P53778 (whole entry, looked up): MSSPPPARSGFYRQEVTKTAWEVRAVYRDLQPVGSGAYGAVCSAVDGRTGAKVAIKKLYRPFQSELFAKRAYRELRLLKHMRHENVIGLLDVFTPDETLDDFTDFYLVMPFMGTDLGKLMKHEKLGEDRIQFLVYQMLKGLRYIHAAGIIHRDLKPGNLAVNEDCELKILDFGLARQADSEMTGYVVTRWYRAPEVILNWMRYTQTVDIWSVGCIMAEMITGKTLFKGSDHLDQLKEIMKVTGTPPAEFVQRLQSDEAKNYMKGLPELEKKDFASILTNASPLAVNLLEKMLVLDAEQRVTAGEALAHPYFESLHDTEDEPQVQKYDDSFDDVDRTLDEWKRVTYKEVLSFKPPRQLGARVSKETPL
# Sequence of UniProt Q9UM07 (whole entry, looked up): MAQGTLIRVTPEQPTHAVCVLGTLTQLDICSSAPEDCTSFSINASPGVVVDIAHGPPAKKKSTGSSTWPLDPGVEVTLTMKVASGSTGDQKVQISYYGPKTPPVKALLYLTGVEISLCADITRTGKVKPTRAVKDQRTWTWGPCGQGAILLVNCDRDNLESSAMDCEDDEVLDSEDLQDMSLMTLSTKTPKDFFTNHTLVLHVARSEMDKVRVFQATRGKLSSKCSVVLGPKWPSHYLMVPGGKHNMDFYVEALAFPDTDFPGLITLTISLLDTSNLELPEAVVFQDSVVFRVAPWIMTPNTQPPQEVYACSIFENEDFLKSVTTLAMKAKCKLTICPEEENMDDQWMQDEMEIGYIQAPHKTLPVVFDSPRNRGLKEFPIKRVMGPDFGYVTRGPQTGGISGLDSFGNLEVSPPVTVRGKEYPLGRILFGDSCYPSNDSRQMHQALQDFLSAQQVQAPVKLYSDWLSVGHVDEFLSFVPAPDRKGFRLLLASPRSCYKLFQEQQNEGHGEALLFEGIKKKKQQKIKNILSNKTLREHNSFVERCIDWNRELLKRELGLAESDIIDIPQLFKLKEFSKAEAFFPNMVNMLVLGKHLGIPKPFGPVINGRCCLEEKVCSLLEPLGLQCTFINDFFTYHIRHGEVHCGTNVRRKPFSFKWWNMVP
# Sequence of UniProt Q8BVQ5 (whole entry, looked up): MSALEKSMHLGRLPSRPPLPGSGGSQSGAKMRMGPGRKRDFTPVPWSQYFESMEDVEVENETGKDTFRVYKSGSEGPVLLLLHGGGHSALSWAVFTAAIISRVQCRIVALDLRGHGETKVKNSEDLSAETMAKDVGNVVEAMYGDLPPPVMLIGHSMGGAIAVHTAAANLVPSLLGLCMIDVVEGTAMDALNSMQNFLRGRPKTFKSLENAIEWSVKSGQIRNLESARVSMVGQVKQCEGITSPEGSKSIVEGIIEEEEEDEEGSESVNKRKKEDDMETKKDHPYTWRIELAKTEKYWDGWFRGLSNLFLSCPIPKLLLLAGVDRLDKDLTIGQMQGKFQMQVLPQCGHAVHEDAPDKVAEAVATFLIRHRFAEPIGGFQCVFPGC
# Sequence of UniProt P33533 (whole entry, looked up): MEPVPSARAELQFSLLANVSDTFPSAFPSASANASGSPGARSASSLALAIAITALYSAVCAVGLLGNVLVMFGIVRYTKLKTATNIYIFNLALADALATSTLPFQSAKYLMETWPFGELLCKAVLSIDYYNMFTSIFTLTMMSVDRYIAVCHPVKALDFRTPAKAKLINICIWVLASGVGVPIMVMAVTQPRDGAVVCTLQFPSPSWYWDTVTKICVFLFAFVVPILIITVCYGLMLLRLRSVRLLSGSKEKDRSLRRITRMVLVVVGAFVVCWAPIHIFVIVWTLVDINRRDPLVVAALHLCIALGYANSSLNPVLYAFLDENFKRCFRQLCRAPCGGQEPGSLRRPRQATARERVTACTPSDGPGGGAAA
# Sequence of UniProt P08238 (whole entry, looked up): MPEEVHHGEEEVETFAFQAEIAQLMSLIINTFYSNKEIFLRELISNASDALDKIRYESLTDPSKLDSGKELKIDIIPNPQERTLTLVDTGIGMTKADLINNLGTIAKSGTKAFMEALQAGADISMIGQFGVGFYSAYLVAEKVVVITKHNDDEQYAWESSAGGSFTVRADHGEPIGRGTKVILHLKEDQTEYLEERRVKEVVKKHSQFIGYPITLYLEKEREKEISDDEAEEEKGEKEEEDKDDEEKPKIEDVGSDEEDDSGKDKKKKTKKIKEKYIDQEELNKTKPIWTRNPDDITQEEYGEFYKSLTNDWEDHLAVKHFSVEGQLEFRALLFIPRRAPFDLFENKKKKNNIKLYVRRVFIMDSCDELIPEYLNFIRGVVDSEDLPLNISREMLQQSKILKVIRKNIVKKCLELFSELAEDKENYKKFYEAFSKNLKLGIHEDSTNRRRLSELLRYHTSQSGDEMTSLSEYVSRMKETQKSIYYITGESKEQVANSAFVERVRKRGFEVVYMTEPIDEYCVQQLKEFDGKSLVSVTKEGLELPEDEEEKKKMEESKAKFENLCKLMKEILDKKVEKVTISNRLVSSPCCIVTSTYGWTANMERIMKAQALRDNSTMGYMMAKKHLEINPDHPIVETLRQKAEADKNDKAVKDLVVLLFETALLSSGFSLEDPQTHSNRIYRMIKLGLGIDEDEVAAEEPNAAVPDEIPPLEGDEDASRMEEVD
# Sequence of UniProt P07332 (whole entry, looked up): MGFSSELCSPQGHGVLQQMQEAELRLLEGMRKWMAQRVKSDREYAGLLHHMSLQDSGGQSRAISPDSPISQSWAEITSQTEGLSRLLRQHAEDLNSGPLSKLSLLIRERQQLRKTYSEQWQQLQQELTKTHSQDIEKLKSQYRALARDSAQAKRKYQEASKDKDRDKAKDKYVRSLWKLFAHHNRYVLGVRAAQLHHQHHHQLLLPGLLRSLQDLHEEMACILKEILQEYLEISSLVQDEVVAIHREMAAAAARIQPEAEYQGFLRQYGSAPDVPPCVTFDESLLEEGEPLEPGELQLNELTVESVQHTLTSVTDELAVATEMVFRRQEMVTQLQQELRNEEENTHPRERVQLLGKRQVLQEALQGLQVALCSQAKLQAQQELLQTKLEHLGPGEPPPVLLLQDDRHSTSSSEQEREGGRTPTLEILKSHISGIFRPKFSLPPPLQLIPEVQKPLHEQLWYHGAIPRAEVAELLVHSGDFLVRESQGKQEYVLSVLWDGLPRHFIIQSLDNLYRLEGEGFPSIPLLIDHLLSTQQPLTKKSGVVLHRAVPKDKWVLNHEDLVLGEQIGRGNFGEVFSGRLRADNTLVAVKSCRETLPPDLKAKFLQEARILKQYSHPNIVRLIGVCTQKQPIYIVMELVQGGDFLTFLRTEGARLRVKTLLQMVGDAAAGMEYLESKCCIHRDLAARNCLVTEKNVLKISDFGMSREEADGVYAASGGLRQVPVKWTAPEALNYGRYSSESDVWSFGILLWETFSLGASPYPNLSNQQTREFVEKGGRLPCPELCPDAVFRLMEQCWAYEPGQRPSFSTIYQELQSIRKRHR
# Sequence of UniProt Q9Y251 (whole entry, looked up): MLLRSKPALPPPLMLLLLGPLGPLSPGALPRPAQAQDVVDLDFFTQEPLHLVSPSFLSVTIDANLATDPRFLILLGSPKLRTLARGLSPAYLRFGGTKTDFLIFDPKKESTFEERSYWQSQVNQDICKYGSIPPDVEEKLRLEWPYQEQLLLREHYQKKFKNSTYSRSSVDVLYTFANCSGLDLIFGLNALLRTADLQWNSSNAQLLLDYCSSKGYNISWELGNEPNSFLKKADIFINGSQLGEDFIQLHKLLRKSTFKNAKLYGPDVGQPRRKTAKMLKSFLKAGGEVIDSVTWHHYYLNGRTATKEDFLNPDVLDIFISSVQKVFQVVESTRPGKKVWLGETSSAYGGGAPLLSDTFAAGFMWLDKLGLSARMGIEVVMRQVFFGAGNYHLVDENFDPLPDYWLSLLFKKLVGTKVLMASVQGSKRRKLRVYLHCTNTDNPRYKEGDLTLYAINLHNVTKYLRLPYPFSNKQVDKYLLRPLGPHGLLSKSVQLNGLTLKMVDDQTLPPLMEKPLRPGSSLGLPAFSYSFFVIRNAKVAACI
# Sequence of UniProt Q15831 (whole entry, looked up): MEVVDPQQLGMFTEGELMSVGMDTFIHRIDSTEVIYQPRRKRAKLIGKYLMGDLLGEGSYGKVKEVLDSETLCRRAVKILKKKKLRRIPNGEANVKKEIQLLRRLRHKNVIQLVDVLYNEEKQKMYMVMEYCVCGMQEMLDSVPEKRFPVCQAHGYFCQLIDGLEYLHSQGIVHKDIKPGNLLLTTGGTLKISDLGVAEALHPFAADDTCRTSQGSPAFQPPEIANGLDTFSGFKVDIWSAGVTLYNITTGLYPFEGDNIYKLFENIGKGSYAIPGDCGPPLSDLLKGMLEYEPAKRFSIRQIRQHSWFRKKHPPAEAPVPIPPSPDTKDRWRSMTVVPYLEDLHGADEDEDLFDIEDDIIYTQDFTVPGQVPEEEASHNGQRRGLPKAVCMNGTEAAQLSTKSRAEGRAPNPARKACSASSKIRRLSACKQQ
SMILES,target,test,system,setting,how to read,quantity,result
O=C1NC(=O)c2c1c1cc(F)c[n+]3c1c1c2c2cc(O)ccc2[n]1[Ru-4]312([N]=C=S)[S+]3CC[S+]1CC[S+]2CC3 (centres unmarked),"STK11 (Homo sapiens, UniProt Q15831)",enzyme activity,,"100 nM, human enzyme, together with: 10 µM ATP",baseline: untreated,remaining activity,106%
CC(C)[C@H]1NC(=O)C[C@H]2/C=C/CCSSC[C@@H](NC1=O)C(=O)N[C@H](Cc1cccc3ccccc13)C(=O)NCC(=O)O2,"FES (Homo sapiens, UniProt P07332)","enzyme activity, inhibitor",,10 µM,,inhibition,2.1%
CS(C)(=O)=Nc1ccc(-c2ccc(-c3nc4cc(O[C@@H]5CO[C@H]6[C@@H]5OC[C@H]6O)[nH]c4cc3F)cc2)cc1,"CAMKK2 (Homo sapiens, UniProt Q96RR4)","enzyme activity, inhibitor",,10 µM,,inhibition,-3%
N[C@H](C(=O)N1CCCC1)C1CCN(c2nccc3c(-c4ncc(Cl)cc4Cl)cccc23)CC1,"PADI4 (Homo sapiens, UniProt Q9UM07)",enzyme activity,,"0.6144 µM, low-affinity site, together with: Ca2+ 0.25 mM",,kcat,0.0768 s⁻¹ and 0.0481 s⁻¹
[CH3][Ti+2][O]C(=O)c1ccc([S][Au][PH](c2ccccc2)(c2ccccc2)c2ccccc2)cc1.c1cc[cH-]c1.c1cc[cH-]c1,"MAPK12 (Homo sapiens, UniProt P53778)",kinase activity,,"1 µM, together with: ATP 10 µM",,remaining activity,111%
CN(C)[C@H]1C[C@@]23CC[C@@]4(O2)C(=CC[C@]2(C)[C@@H](c5ccc6ccncc6c5)CC[C@H]24)C=C3[C@@H](O)[C@@H]1O,"ROCK1 (Homo sapiens, UniProt Q13464)","probe labelling, inhibitor, KiNativ ATP probe MS",native lysate,1 µM,,inhibition,19%
CCCc1cc2cc(-n3nc(C4CC4)c4c3CC(C)(C)CC4=O)cc(N3CCC(O)CC3)c2c(=O)[nH]1,"HSP90AB1 (Homo sapiens, UniProt P08238)",fluorescence polarization,,,baseline: apparent KD Hsp90α over apparent KD HSP90AB1,selectivity ratio,> 100 fold
CC(C)CC(O)(CC(C)C)c1cn(C(=O)N2CCCC2)nn1,"Protein phosphatase methylesterase 1 (Mus musculus, UniProt Q8BVQ5)","probe labelling, inhibitor, measured: Ppme1","mouse, brain","i.p., 0.8 mg/kg, 4 h, protein level","baseline: treated over vehicle mice, lower = stronger inhibition",activity ratio-of-ratios,1.27
CC[C@@H](C)[C@@H]1CN([C@@H](CC2CCCCC2)CN2CCC[C@H]2CN2CCNC[C@@H]2Cc2ccc3ccccc3c2)CCN1CCCC1CCCC1,"Oprd1 (Rattus norvegicus, UniProt P33533)",radioligand binding,rat brain membranes,"500 nM, pH 7.5, 25 °C, together with: 2 nM [3H]DPDPE",,remaining binding,97.3%
C=CC(=O)Nc1cc(-c2ccc(C(=O)N3CCCC(O)(CC)C3)cc2)ccc1F (centres unmarked),"DNA dC->dU-editing enzyme APOBEC-3B, C-terminal domain (Homo sapiens, UniProt Q9UH17)","covalent adduct, intact protein MS, measured: mass +397 Da adduct of 25735 Da",,"500 µM, 1 h, 20-fold molar excess",,adducted protein,35% and 44%
CC(C)CCCC(C)C1CCC2C3CCC4CC(OC5OC(C)C(OC6OC(C)C(OC7OC(C)C(OC8OC(C)C(OS(=O)(=O)O)C(OS(=O)(=O)O)C8OS(=O)(=O)O)C(OS(=O)(=O)O)C7OS(=O)(=O)O)C(OS(=O)(=O)O)C6OS(=O)(=O)O)C(OS(=O)(=O)O)C5OS(=O)(=O)O)CCC4(C)C3CCC12C (centres unmarked),"Heparanase (HPSE, Homo sapiens, UniProt Q9Y251)","enzyme activity, inhibitor",,concentration not given,baseline: 10,relative inhibitory activity,~3 fold

# A few entries again:
SMILES,target,test,system,setting,how to read,quantity,result
CC(C)[C@H]1NC(=O)C[C@H]2/C=C/CCSSC[C@@H](NC1=O)C(=O)N[C@H](Cc1cccc3ccccc13)C(=O)NCC(=O)O2,"FES (Homo sapiens, UniProt P07332)","enzyme activity, inhibitor",,10 µM,,inhibition,2.1%
